Assay results from different studies.
Parts stem from different laboratories: compare values within a part only. Positions count from the first letter of the parent shown.

Sample 1
Target: RNA binding protein fox-1 homolog 2, RRM domain, GST-SBP tag (RBFOX2, Homo sapiens, UniProt O43251-10, residues 100-194)
Technique: RNA Bind-n-Seq
Molecule type: RNA
Medium: in vitro
Concentration: 365 nM
Setting: natural RNA segment, single round, ends assumed
Baseline: no-protein control
Reading: higher = stronger binding
Endpoint: RBNS enrichment (R)
Shared flanks, not repeated: GGGAGUUCUACAGUCCGACGAUC … UGGAAUUCUCGGGUGCCAA
Construct (chain): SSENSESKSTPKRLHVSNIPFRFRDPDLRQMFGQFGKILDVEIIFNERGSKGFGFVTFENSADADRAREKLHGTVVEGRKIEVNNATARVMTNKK
UCUGCAUUUAACUACAAAAAAAGUUUAUGUUUAGUUUGGUAGAGGUGUUAUGUAUAAUGCUUUGUUAAAGAACCCCCUUUCCGUGCCACUGGUGAAUAGGGAUUAAUGAA: 4.91
UUCAGUUUCCUGUAUAUUUGCUUACUGUGCCGUUUUAGUGGUUUUAGGAUAAAAAUGCACUGGUGAAGCAAAUGUAGUGCCAACAGAAGGUGAUUUUCCAGUUGUAAAUG: 0.654
AGGCCGAGACAGGCGGAUCACCUGAGGUCGGGAGUUCGAGACCAGCCUUACCAACAUGGAGAAACCCCAUCUCUACUAAAAAUACAAAAUUACCUGGGCGUGGUGGUGCA: 3.7
UAGGUUGUACGUCAUUCUCGAUGUUUAACAUGAGAAGCAAGGAAGGCAUGAUUUUUAUCAGUGAUUUAUAUUGGGAAUGAAAACCGUUCCUGCCUCCUCCCAAGGGAAGG: 0.957
CCAUUCAGGAUCGCUACGGUUCUUAAUCCUGGUGCCAGGCUGUCCAACCUGGUAAAACUCCACUUCAGAUGGACCUGAGACCACAUCUGGCUGCGCCAAUGCCCCAGCUG: 0.217
CUGUCCUUAUCUCCUGUCAUAGCUGUCCAACUGCAGGGUAAGGAGCAAGUUGUGAGGAAAGGUCCUCAGAACAUGGGAUUCCACAUGAGGAAUCCUUAGGCUGCCAGGAA: 0.418
UUGAGACCUCCGGCCUUAGGAAGUUGCUUCCAUUAGGAAAUGCCUUUCUGAUCCCAGGAGCUCAGCUCGACUGUUAACAUCUGAAGCUUAUUCUCUUCCUUCCCGCUGGG: 0.254
GAGGAAGAUAAAUGCGAGAGGGCAAUCCUUUACUAUUCUCAUAUUUAUUUAUCUCUCAUUCUGUAUAGAAUUCUUGCCGCCAUCCCAGGUCUAGCCUUAGGAGCAAAUGU: 0.246
UUUAAACUGCACCUUGCAGAAAUGCAUUGCCAGAAAGCACCAGUAGCCUCCUAUCUGCAAGCAGAGUAGUGCUCUGCUCUGGGGAGGGGUCAUUGGAAACCAUAAUGCAG: 0.302
UCUUCAAAGCAUCUGUGUGAGGGGGUCUUCCCUCUUACAAGAAAGCUGUCUGUUGGGGGUUACAAGCAAGGUGGUAAACGUUAAGCUAGUAUCAUAGUCAUUUAAACCUG: 0.226
ACUUCCUAGAGCAUCUGUCCCACUGGGACACAACCACUAAUUUGUCACUGGAACCUCCCUGGGCCUGUCUCAGAUUGGGAUUAACAUAAAAGAGUGGAACUAUCCAAAAG: 0.231
GUUUUUAAUCUGUAUAUACUGUCUGUUUAUAGUGUGGGCAGUGAGUAAGCUGUAGCUUUGAGUUGCAAAGAAGUCACAGGAAAGAACCAUUUGGGUUUCUGAAGUACAAG: 0.701

Sample 2
Target: Interferon regulatory factor 5, full length, phosphomimetic (IRF5, Homo sapiens, UniProt Q13568-2, residues 1-514, S451D/S453D/S456D/S462D)
Technique: protein-binding microarray
Molecule type: double-stranded DNA, one strand shown
Medium: in vitro
Concentration: 940 nM top
Setting: 60-bp whole probe
Together with: salmon DNA 0.4 mg/ml
Baseline: random background probes
Reading: higher = stronger binding
Endpoint: fitted relative affinity
Shared flanks, not repeated: GCCTAGCAC … GTCTTGATTCGCTTGACGCTGCTG
GTGACTCAGCACTTTGGCATGGTGCTA: -0.595 z-score
GACGGTATCGGGTATTGGGACGTGCTA: 4.52 z-score
GACGGTCTCGGGTATCGGGACGTGCTA: 2.27 z-score
TCAAAAATGCCCTTTTGGACTGTGCTA: 0.256 z-score
TAATTTTCATTTTCCAAATGGTGCTAG: 1.3 z-score
GACGATCTCAGACTGGAAACGTGCTAG: -0.166 z-score
TCACTTTTGCTTTACTGACTGTGCTAG: 1.52 z-score
TCATCCCTAATTCTGATACTGTGCTAG: 0.504 z-score
TCCTTTATGTACTCTCTACATGTGCTA: 0.947 z-score
CTTGTTTCCAGTATATTTAAGTGCTAG: 1.3 z-score
GACGGTTTCGTCACTGGGGACGTGCTA: 5.23 z-score
TCAACACTCTTCTTTTGCACTGTGCTA: 1.05 z-score
GACGATCTCAGTCTCGAGAGGTGCTAG: 0.81 z-score
TTTGGTTTCCTTATCCTTTAGTGCTAG: 3.2 z-score
TCAGATCTCAGACTGGATTAGTGCTAG: -0.411 z-score
TTGGGACTGGACACTGGGTTAGTGCTA: -0.285 z-score
TCACTTTTCATTTTCTTACTGTGCTAG: 2.43 z-score
TGCTTCTAACAGAGGAGGTTGTGCTAG: -0.663 z-score
TTACATCTCAGTTTCGATTAGTGCTAG: 8.81 z-score
TCATTTCCATTTTCTGAAACTGTGCTA: 1.3 z-score
TTAGAACTGAATATCGATTAGTGCTAG: -0.0138 z-score
GACGGACTGGTCACTGGGGACGTGCTA: -0.231 z-score
TCAGGACTGGGTTTCGGTTAGTGCTAG: 7.34 z-score
TTAGGAGTCAACTCTCTAATTGTGCTA: -0.539 z-score
CACGGTCTCCTACTGCTGACGTGCTAG: -0.0957 z-score

Sample 3
Target: Histone acetyltransferase KAT6A, winged helix 1, GST fusion (KAT6A, Homo sapiens, UniProt Q92794, residues 1-85)
Technique: protein binding microarray
Molecule type: double-stranded DNA, one strand shown
Medium: in vitro
Concentration: not given
Setting: 8-mer, flanks averaged, mean of 2 arrays, mostly near background
Baseline: not given
Reading: higher = stronger binding
Endpoint: E-score
Construct (chain): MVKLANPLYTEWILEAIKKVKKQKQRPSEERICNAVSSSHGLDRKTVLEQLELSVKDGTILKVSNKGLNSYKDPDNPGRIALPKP
ATCCGAAC: -0.0652
TAACATGA: 0.0186
ACGGACCC: 0.235
GGGTGATA: 0.133
GCGCTTGA: 0.264
GTAGCTAC: 0.00853
CACCTTCA: -0.0131
GACGGTAC: 0.263
GATGGTGA: -0.229
GGTAATAC: 0.0824
TAAAACCA: -0.0977
GGAGCGCC: 0.244
ACCCATGA: -0.272
ACGACCTG: -0.0149
AACTTACG: 0.0977
CACTCTAA: -0.132
TACGAGGA: -0.00863
CCAGATAG: -0.32
GACAGCGA: 0.108

Sample 4
Target: Ras GTPase-activating protein-binding protein 1, full length (G3BP1, Homo sapiens, UniProt Q13283)
Chain of UniProt Q13283 (whole entry, looked up): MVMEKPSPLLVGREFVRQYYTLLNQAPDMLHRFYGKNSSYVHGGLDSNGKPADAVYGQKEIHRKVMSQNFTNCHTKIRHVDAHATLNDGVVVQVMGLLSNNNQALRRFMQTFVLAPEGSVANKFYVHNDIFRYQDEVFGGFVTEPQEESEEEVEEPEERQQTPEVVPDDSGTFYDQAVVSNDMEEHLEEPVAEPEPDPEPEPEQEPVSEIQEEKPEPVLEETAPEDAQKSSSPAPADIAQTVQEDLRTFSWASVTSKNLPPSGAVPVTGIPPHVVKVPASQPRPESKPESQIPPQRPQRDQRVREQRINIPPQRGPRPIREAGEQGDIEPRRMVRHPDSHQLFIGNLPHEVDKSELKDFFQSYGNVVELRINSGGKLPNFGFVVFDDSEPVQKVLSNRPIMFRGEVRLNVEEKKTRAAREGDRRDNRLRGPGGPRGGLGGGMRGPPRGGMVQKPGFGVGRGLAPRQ
Technique: RNA Bind-n-Seq
Molecule type: RNA
Medium: in vitro
Concentration: 200 nM
Setting: whole 134-nt RNA, ends assumed
Together with: 150 mM KCl
Baseline: input library
Reading: higher = stronger binding
Endpoint: log2 enrichment
Shared flanks, not repeated: GGGAGUUCUACAGUCCGACGAUC … UGGAAUUCUCGGGUGUCAAGG
GCAGGAAGUAAAAACAAAUGGAAAUGCUUCGGAUAGUGGCAGGGGUGGGGGUUGCUAAGGAAAGCGUGGGAUGGGAGUGGGUAAAGAGUU: 1.02
UCCUGUGCUACACAUCGUAUGUACCGAAUCGGGUUUUUUUGGGAAAAAGGGUUUUUGGGAAAGUAUUAUGUUACGCCGUUCGGAUCUGCA: -0.379
UUAUCUGUGGACUUCACCCAAAAGGAGUGGCAGCUACUGGAUCCCUCUCAGAAGAAUUUAUACAAGGAUGUGAUGUUGGAGAACUAUAGC: -0.386
AGUCCUGUGCUACACAUCGUAUGUACCGAAUCGGGUUUUUGGGUUUGGGUUUUUGGGAAAGUAUUAUGUUACGCCGUUCGGAUCUGCACU: -0.34
AAGUCCUGUGCUACACAUCGUAUGUACCGAAUCAAAUUUAAAUUUUUAAACCCAAAAAAGUAUUAUGUUACGCCGUUCGGAUCUGCACUU: -0.401
CAAGUCCUGUGCUACACAUCGUAUGUACCGAAUCGGGAAAGGGGAAAGGAAAGGGAAAGUAUUAUGUUACGCCGUUCGGAUCUGCACUUC: -0.438
UGGGAGGUGGAUUUUGUUUAUUUUUUUAGCUCAUUUCCAGGGGUGGGAAUUUUUUUUUAAUAUGUGUCAUGAAUAAAGUUGUUUUUGAAG: 0.651
GUCCUGUGCUACACAUCGUAUGUACCGAAUCGGGAAAAAGGGAAAAAAAGGGAAAGGGAAAGUAUUAUGUUACGCCGUUCGGAUCUGCAC: -0.493
UUGAGAAGAAGCAAAAAGAGAUGGAUGAAGCUGCUACGGUGAGAGAAAACCCACUAUCGAUUCCACUCACCACUUACCUCCUUCCCUUAC: 0.55
ACCAUGCAGGCGGGCAUCUUUGGGAAGUGGGGCAAGGGGGGGAUAGGGAGGGGGGUAACACUUUGGGAACAGGUGGUCCCAGGUCGUUUC: 1.62
UCAAGUCCUGUGCUACACAUCGUAUGUACCGAAUCGGGUUUGGUUUGGGGUUUGGAAAGUAUUAUGUUACGCCGUUCGGAUCUGCACUUC: -0.625
UAACCUUAGAGGAGGAUCUGAUGGAUAUGGCAGUGGACGUGGAUUUGGGGAUGGCUAUAAUGGGUAUGGAGGAGGACCUGGAGGUGGCAA: 0.532
GUCCUGUGCUACACAUCGUAUGUACCGAAUCGGGUUUUUGGGAAAAAAAGGGUUUGGGAAAGUAUUAUGUUACGCCGUUCGGAUCUGCAC: -0.458
UCCUCAAGUCCUGUGCUACACAUCGUAUGUACCGAAUCGGGCGGCGGCGGGGAAAGUAUUAUGUUACGCCGUUCGGAUCUGCACUUCCAG: 0.202

Sample 5
Target: CCND2, cyclin fold, Cln2 fusion (human)
Technique: yeast growth competition, sequencing
Medium: yeast
Setting: weak parent motif
Baseline: not given
Reading: higher = stronger binding
Endpoint: normalised enrichment score
Starting sequence: CDKN1A docking peptide (human); SKACRRLFGPVDS
K2S: 0.44
F8G: 0.119
F8C: 0.108
D12P: 0.0465
K2E: 0.328
P10R: 0.0384
A3G: 0.0566
A3C: 0.385
D12C: 0.267
D12S: 0.197
D12W: 0.0338
D12V: 0.135
L7S: -0.0711
F8T: -0.745
R5C: 0.492
P10Y: 0.142
R6P: -0.0368
C4Q: 0.384
R6M: 0.348
R5M: -0.00793
R5W: 0.0181
C4N: -0.0682
C4W: 0.0634
D12F: 0.323
F8I: 0.762

A few entries again (sample 2):
TTACATCTCAGTTTCGATTAGTGCTAG: 8.81 z-score
TCATTTCCATTTTCTGAAACTGTGCTA: 1.3 z-score
TTAGAACTGAATATCGATTAGTGCTAG: -0.0138 z-score
GACGGACTGGTCACTGGGGACGTGCTA: -0.231 z-score
TCAGGACTGGGTTTCGGTTAGTGCTAG: 7.34 z-score
TTAGGAGTCAACTCTCTAATTGTGCTA: -0.539 z-score
CACGGTCTCCTACTGCTGACGTGCTAG: -0.0957 z-score
